{"data": "Experimental data gathered from unrelated publications", "note": "Protocols differ between the studies behind these lines. Values joined by “and” are separate records of one study, mostly repeats; a detail may differ. ± marks the error that the study gave."}
{"Structure (SMILES)": "Cc1cc(NC2CCN(C(=O)OC3CCN(C(=O)/C=C/CN(C)C)C3)CC2)n2ncc(C(C)C)c2n1 (centres unmarked)", "system": "patients with advanced solid tumours", "setting": "dose not given, QD arm, grade 3 or higher", "quantity": "patients with Vomiting", "result": "2%"}
{"Structure (SMILES)": "CO[C@@H]1[C@H](O)[C@@H](CO)O[C@H]1n1c([N+](=O)[O-])nc2c(=O)[nH]c(N)nc21", "test": "depurination, RP-HPLC", "system": "citrate-phosphate buffer 0.5 mM", "setting": "1480 min, pH 2, 37 °C", "quantity": "nucleoside remaining fraction", "result": 0.258}
{"Structure (SMILES)": "Cc1cc(Nc2ccc(S(F)(F)(F)(F)F)cc2)n2nc(C(C)(F)F)nc2n1", "system": "Plasmodium vivax malaria patients", "setting": "oral, 800 mg", "quantity": "adverse event Asthenia", "result": "0%"}
{"Structure (SMILES)": "CN(C(=O)n1cnc(-c2cccnc2)c1)[C@H]1CC[C@H](O)CC1", "system": "rat, cerebellum", "setting": "oral, 10 mg/kg single dose, 4 h", "quantity": "tissue concentration", "result": "33 ± 8 ng/g"}
{"Structure (SMILES)": "Cn1cc([C@H]2C[C@H]3CSC(N)=N[C@@]3(c3ccc(F)cc3F)CO2)cn1", "system": "male 129/SVE mouse, brain", "setting": "subcutaneous, 50 mg/kg, 9 h", "quantity": "brain concentration", "result": "2.47 µM"}
{"Structure (SMILES)": "Cc1c(-c2ccc(N3CCc4cccc(C(=O)Nc5nc6ccccc6s5)c4C3)nc2C(=O)O)cnn1CC12CC3(C)CC(C)(C1)CC(OCCNCC[C@H](O)CO)(C3)C2", "system": "beagle dog, anaesthetised", "setting": "intravenous infusion, 0.1 mg/kg/min, 30 min", "how to read": "relative to: baseline", "quantity": "mean arterial pressure change", "result": "-2 mmHg"}
{"Structure (SMILES)": "O=C1CCc2ccc(OCCCCN3CCN(c4cccc(Cl)c4Cl)CC3)cc2N1", "test": "measured: Xerostomia", "system": "genotyped patients, CYP2D6 poor metabolizers", "setting": "dose not given, long-acting oral or depot", "quantity": "adverse event incidence", "result": "11%"}
{"Structure (SMILES)": "CCCCCCCCCCCCCCCC(=O)N[C@@H](CCC(=O)NCCCC[C@H](NC(=O)[C@H](C)NC(=O)[C@H](C)NC(=O)[C@H](CCC(N)=O)NC(=O)CNC(=O)[C@H](CCC(=O)O)NC(=O)[C@H](CC(C)C)NC(=O)[C@H](Cc1ccc(O)cc1)NC(=O)[C@H](CO)NC(=O)[C@H](CO)NC(=O)[C@@H](NC(=O)[C@H](CC(=O)O)NC(=O)[C@H](CO)NC(=O)[C@@H](NC(=O)[C@H](Cc1ccccc1)NC(=O)[C@@H](NC(=O)CNC(=O)[C@H](CCC(=O)O)NC(=O)[C@H](C)NC(=O)[C@@H](N)Cc1cnc[nH]1)[C@@H](C)O)[C@@H](C)O)C(C)C)C(=O)N[C@@H](CCC(=O)O)C(=O)N[C@@H](Cc1ccccc1)C(=O)N[C@H](C(=O)N[C@@H](C)C(=O)N[C@@H](Cc1c[nH]c2ccccc12)C(=O)N[C@@H](CC(C)C)C(=O)N[C@H](C(=O)N[C@@H](CCCNC(=N)N)C(=O)NCC(=O)N[C@@H](CCCNC(=N)N)C(=O)NCC(=O)O)C(C)C)[C@@H](C)CC)C(=O)O", "system": "rat Sprague-Dawley male, plasma", "setting": "subcutaneous, 0.3 mg/kg, first injection, 4 day escalation", "quantity": "AUC(0-peak)", "result": "159 µg·h/mL"}
{"Structure (SMILES)": "Cc1cc(Nc2cc3ncccc3c(N[C@@H]3C[C@H]4CC[C@@H](C3)N4CCC#N)n2)n[nH]1", "system": "healthy human", "setting": "oral, 100 mg multiple doses, 14 days", "quantity": "subjects with contact dermatitis", "result": "0%"}
{"Structure (SMILES)": "Cc1cc(-c2nccc3c2ccn3CC(=O)Nc2ccc(-c3cnccn3)cn2)ccn1", "system": "human", "setting": "20 mg once daily, multiple ascending dose", "quantity": "subjects with Cough adverse event", "result": "0%"}
{"Structure (SMILES)": "CCOc1c([C@H](C)n2nc(C)c3c(N)ncnc32)cc(Cl)c(F)c1[C@@H]1CNC(=O)C1", "system": "patients, monotherapy", "setting": "oral, 30 mg once daily, cycle 1 day 15", "quantity": "Tmax median", "result": "30 min"}
{"Structure (SMILES)": "O=C(Nc1nc2cccc(-c3ccc(CN4CCS(=O)(=O)CC4)cc3)n2n1)C1CC1", "test": "measured: vertigo", "system": "rheumatoid arthritis patients", "setting": "oral, 30 mg once daily, 4 weeks, any relatedness", "quantity": "treatment-emergent adverse events", "result": "0%"}
{"Structure (SMILES)": "C=CCn1c(=O)c2cnc(Nc3ccc(N4CCN(C)CC4)cc3)nc2n1-c1cccc(C(C)(C)O)n1", "system": "human", "setting": "oral, 250 mg once daily, monotherapy lead-in, -5 days", "how to read": "geometric mean", "quantity": "Cmax", "result": "1.06 µM"}
{"Structure (SMILES)": "CC(C)[N+](C)(CCOC(=O)C1c2ccccc2Oc2ccccc21)C(C)C", "system": "mouse, CD-1, both sexes, whole blood", "setting": "5 µM, 15 min", "quantity": "remaining compound", "result": "82.8%"}
{"Structure (SMILES)": "CCN1/C(=C/C(C)=O)Sc2ccc(F)cc21", "system": "cynomolgus monkey", "setting": "oral, 100 mg/kg, 4 h post-dose", "quantity": "QTc interval (Bazett)", "result": "331 ± 6 ms"}
{"Structure (SMILES)": "CC[C@H](C)[C@@H]1NC(=O)[C@@](C)(NC(=O)[C@H](CCCNC(=N)N)NC(=O)[C@H](CC(C)C)NC(=O)[C@@H](NC(=O)[C@H](CCC(N)=O)NC(=O)[C@H](CC(C)C)NC(C)=O)[C@@H](C)O)CCCC=CCCC[C@@](C)(C(=O)N[C@@H](CC(C)C)C(=O)N[C@@H](Cc2ccc3ccccc3c2)C(N)=O)NC(=O)[C@H](CCCNC(=N)N)NC(=O)[C@H](CCC(N)=O)NC1=O", "test": "LC-MS", "system": "BALB/c nude mouse, plasma", "setting": "2 µM, 0.25 h", "quantity": "remaining compound", "result": "104%"}
{"Structure (SMILES)": "CO[C@]1(C(=O)N[C@@H](C)c2ccc(-n3cc(F)cn3)nc2)CC[C@H](c2nc(C)cc(Nc3cc(C)[nH]n3)n2)CC1", "system": "humans, urine and feces", "setting": "oral, dose not given", "how to read": "relative to: dose", "quantity": "unrecovered radioactivity", "result": "~21% and 21.4%"}
{"Structure (SMILES)": "C[C@H](O)[C@@H](O)[C@@H](O)[C@H](O)C=O", "test": "binding, MIDAS equilibrium dialysis LC-MS", "system": "A2AR-BRIL thermostabilized", "setting": "concentration not given", "how to read": "relative to: no-protein control", "quantity": "log2 fold change", "result": -0.205}
{"Structure (SMILES)": "O=C(O)C1=CO[C@@H](O[C@@H]2O[C@H](CO)[C@@H](O)[C@H](O)[C@H]2O)[C@@H]2C(CO)=CC[C@H]12", "test": "three freeze-thaw cycles", "system": "rat plasma", "setting": "200 ng/mL, -70 °C freeze", "quantity": "accuracy", "result": "92.8%"}
{"Structure (SMILES)": "Cc1noc(C)c1-c1cc(C(O)(c2ccccn2)c2ccccn2)c2nc(C3CC3)[nH]c2c1", "system": "human patients, plasma", "setting": "oral, 2 mg, cycle 1 day 8, monotherapy", "quantity": "Ctau", "result": "34.4 ng/mL"}
{"Structure (SMILES)": "COc1ccc2c(c1)CN(C(=O)CCN1CCC(Cc3ccccc3)CC1)CC[S@@+]2[O-]", "system": "beagle dog, female, plasma", "setting": "intravenous, 8 mg/kg, day 14, 14-day toxicity study", "quantity": "unbound plasma concentration", "result": "5.17 µM"}
{"Structure (SMILES)": "O=C(c1cccnc1-c1ccncc1)N1CCC(O)(Cc2ccccc2)CC1", "system": "healthy Japanese adults, plasma", "setting": "oral, 200 mg single dose", "quantity": "Cmax/dose", "result": "4.25 ng/mL/mg"}
{"Structure (SMILES)": "CN1CC(=O)N2[C@H](c3ccc4c(c3)OCO4)c3[nH]c4ccccc4c3C[C@@H]2C1=O", "system": "human plasma", "setting": "1.50 ng/mL, 74 days, long-term storage -70 °C", "quantity": "accuracy", "result": "99.5%"}
{"Structure (SMILES)": "O=C(O)CCC(=O)O.[2H]C([2H])([2H])Oc1cc(C)c2[nH]ccc2c1CN1CC[C@@H](C2CC2)C[C@H]1c1ccc(C(=O)O)cc1", "system": "human, plasma", "setting": "125 mg twice daily, day 10, multiple ascending dose", "quantity": "Vss/F", "result": "131 L"}
{"Structure (SMILES)": "CCC(=O)O[C@]1(C(=O)SCF)[C@H](C)C[C@H]2[C@@H]3C[C@H](F)C4=CC(=O)C=C[C@]4(C)[C@@]3(F)[C@@H](O)C[C@@]21C", "test": "three-compartment model", "system": "rat, plasma", "setting": "intravenous, 90 nmol/kg", "quantity": "slow distribution clearance", "result": "35 ± 10.5 mL/min/kg"}
{"Structure (SMILES)": "CNC(=O)c1cc(Oc2ccc(NC(=O)Nc3ccc(Cl)c(C(F)(F)F)c3)c(F)c2)cc[n+]1[O-]", "test": "short-term stability", "system": "mouse plasma", "setting": "25 ng/mL, 8 h, room temperature", "quantity": "accuracy", "result": "98.2%"}
{"Structure (SMILES)": "CCc1cc(C(=O)NC)c2nccc(N3CCc4c(cc(Cn5ccnc5)cc4-c4cn(C)nc4C(F)(F)F)C3=O)c2c1", "system": "Sprague Dawley rats", "setting": "oral, 50 mg/kg once daily, 7 days", "quantity": "reticulocyte haemoglobin content", "result": "20.9 ± 1.03 pg"}
{"Structure (SMILES)": "O=c1ccn([C@@H]2O[C@H](COP(=O)(O)OP(=O)(O)O)[C@@H](O)[C@H]2O)c(=O)[nH]1", "test": "binding, MIDAS equilibrium dialysis LC-MS", "system": "A2AR-BRIL thermostabilized", "setting": "concentration not given", "how to read": "relative to: no-protein control", "quantity": "log2 fold change", "result": -0.985}
{"Structure (SMILES)": "C/C(O)=C(\\C#N)C(=O)Nc1ccc(C(F)(F)F)cc1", "system": "CD-1 mice female, plasma", "setting": "oral, 10 mg/kg leflunomide daily, 24 h", "quantity": "free plasma concentration", "result": "90.7 ± 13.7 µM"}
{"Structure (SMILES)": "CNC(=O)c1ccc(-c2cnc3ncc(Cc4ccc5ncccc5c4)n3n2)cc1F", "test": "measured: Pyrexia", "system": "other cancer patients", "setting": "oral, 600 mg twice daily, expansion cohort, grade 3-4", "quantity": "patients with adverse event", "result": "0%"}
{"Structure (SMILES)": "CNCCOC12CC3(C)CC(C)(CC(Cn4ncc(-c5ccc(N6CCc7cccc(C(=O)Nc8nc9ccccc9s8)c7C6)nc5C(=O)O)c4C)(C3)C1)C2", "system": "anaesthetised male beagle dogs", "setting": "intravenous bolus, 0.03 mg/kg, 60 min", "quantity": "plasma concentration", "result": "1.1 ± 0.1 ng/mL"}
{"Structure (SMILES)": "N#Cc1ccc2c(c1)[C@H]1CCCN(C(=O)c3ccc4[nH]cnc4c3)[C@H]1C2", "system": "human males", "setting": "240 mg, day 15", "quantity": "total testosterone level", "result": "14.4 nmol/L"}
{"note": "Repeated from above:"}
{"Structure (SMILES)": "CC[C@H](C)[C@@H]1NC(=O)[C@@](C)(NC(=O)[C@H](CCCNC(=N)N)NC(=O)[C@H](CC(C)C)NC(=O)[C@@H](NC(=O)[C@H](CCC(N)=O)NC(=O)[C@H](CC(C)C)NC(C)=O)[C@@H](C)O)CCCC=CCCC[C@@](C)(C(=O)N[C@@H](CC(C)C)C(=O)N[C@@H](Cc2ccc3ccccc3c2)C(N)=O)NC(=O)[C@H](CCCNC(=N)N)NC(=O)[C@H](CCC(N)=O)NC1=O", "test": "LC-MS", "system": "BALB/c nude mouse, plasma", "setting": "2 µM, 0.25 h", "quantity": "remaining compound", "result": "104%"}
{"Structure (SMILES)": "CCC(=O)O[C@]1(C(=O)SCF)[C@H](C)C[C@H]2[C@@H]3C[C@H](F)C4=CC(=O)C=C[C@]4(C)[C@@]3(F)[C@@H](O)C[C@@]21C", "test": "three-compartment model", "system": "rat, plasma", "setting": "intravenous, 90 nmol/kg", "quantity": "slow distribution clearance", "result": "35 ± 10.5 mL/min/kg"}
{"Structure (SMILES)": "Cc1cc(NC2CCN(C(=O)OC3CCN(C(=O)/C=C/CN(C)C)C3)CC2)n2ncc(C(C)C)c2n1 (centres unmarked)", "system": "patients with advanced solid tumours", "setting": "dose not given, QD arm, grade 3 or higher", "quantity": "patients with Vomiting", "result": "2%"}
{"Structure (SMILES)": "O=C(O)CCC(=O)O.[2H]C([2H])([2H])Oc1cc(C)c2[nH]ccc2c1CN1CC[C@@H](C2CC2)C[C@H]1c1ccc(C(=O)O)cc1", "system": "human, plasma", "setting": "125 mg twice daily, day 10, multiple ascending dose", "quantity": "Vss/F", "result": "131 L"}
